Experimental data gathered from unrelated publications.
Values joined by “and” are separate records of one study, mostly repeats; a detail may differ. ± gives the spread as reported.

| Compound | target | test | test system | conditions | how to read | quantity | result |
| --- | --- | --- | --- | --- | --- | --- | --- |
| NS(=O)(=O)c1ccc(Nc2nc(-c3ccc(F)cc3)c3ccccc3n2)cc1 | TAF1 bromodomain 2 | BROMOscan | – | 1000 nM | relative to: untreated control, lower = stronger binding | remaining binding | 90% |
| CC[S+]([O-])c1nc(-c2ccccc2)cc(C(F)(F)F)n1 (centres unmarked) | transportin-1/2 | FUS nuclear import, high content imaging | HeLa Kyoto reporter | 50 µM, 2 h | – | cells with nuclear reporter | 99.1% and 97.1% |
| COc1cc(C)c2cc(C(=O)NS(=O)(=O)c3ccc(-c4ccccc4)cc3)oc2c1 | estrogen receptor alpha, human | reporter gene | MCF7-MVLN | 24 h | – | IC50 | > 17.6 µM |
| Nc1ncnc2c1ncn2[C@@H]1O[C@H](COP(=O)(O)OP(=O)(O)OP(=O)(O)O)[C@@H](O)[C@H]1O | human Kir6.2 | KATP channel current, inhibitor, inside-out patch clamp | transfected HEK-293T | – | – | IC50 | 61.1 µM |
| COc1cnc(Nc2cccc(S(N)(=O)=O)c2)nc1N1CCN(c2ccccc2)CC1 | human FLT3 ITD/F691L | binding, KINOMEscan | – | 1000 nM | lower = stronger binding | percent of control | 89% |
| C=CC[C@@]1(C)C(=O)[C@H](C)[C@@H](O)[C@@H](C)CCC/C(CO)=C\C[C@@H](/C(C)=C/c2csc(C)n2)OC(=O)C[C@@H]1O | tubulin | tubulin assembly, stimulator | cell-free | – | – | EC50 | 1.3 ± 0.07 µM |
| CC(Nc1nc(N2CCCC2)nc2ccccc12)c1ccccc1 (centres unmarked) | importin α/β1 | cMyc nuclear import, high content imaging | HeLa Kyoto reporter | 0.32 µM, 2 h | – | cells with nuclear reporter | 88.2% and 98.2% |
| Cc1cc(F)cc2c(CCC(=O)N[C@@H]3C(=O)NC[C@H]3O)c(-c3ccc(F)cc3)[nH]c12 | GABAA chloride channel, TBOB site | binding | – | 10 µM | – | inhibition | -5% |
| O=C(NC[C@H](O)CO)c1ccncc1Nc1ccc(I)cc1F | IDO1 human | inhibitor | A-431 | 1 µM, added: IFN-γ | – | kynurenine production | 82.8% |
| C=CCOC/C1=C/C[C@@H](/C(C)=C/c2csc(C)n2)OC(=O)C[C@H](O)[C@@](C)(CC=C)C(=O)[C@H](C)[C@@H](O)[C@@H](C)CCC1 | tubulin | tubulin assembly, stimulator | cell-free | – | – | EC50 | 0.54 ± 0.07 µM |
| CNCc1ccc(-c2cc(-c3nc(-c4ccc(S(=O)(=O)C(C)C)cc4)cnc3N)on2)cc1 | CK1 (yeast) | inhibitor | – | 0.4 µM, added: ATP at Km | – | inhibition | 0% |
| O=C(O)[C@@H]1CS[C@H](c2ccccc2O)N1C(=O)CCS | aminopeptidase W (pig) | enzyme activity, inhibitor | – | – | – | IC50 | 1.6 µM |
| COc1cc(-c2cc(-c3ccc(N4CCNCC4)cc3)cnc2C)cc(OC)c1OC | human CK1 | enzyme activity, inhibitor | – | 1 µM | – | inhibition | 7% |
| [Ca+2] | human TRPA1 | ion current, two-electrode voltage clamp | Xenopus oocytes | +80 mV, added: AITC | – | desensitization time constant | 10.1 s and 13.5 s and 6.87 s and 6.15 s and 19 s |
| O=C(NS(=O)(=O)c1ccccc1-c1ccccc1)c1cc2ccc(OCCO)cc2o1 | estrogen receptor alpha, human | reporter gene | MCF7-MVLN | 24 h | – | IC50 | > 20 µM |
| CC1CCCN(C(=O)c2cc3ncccn3n2)C1 (centres unmarked) | human THEMIS domain | binding, affinity selection mass spectrometry | – | – | relative to: other proteins in batch | log fold enrichment | -0.108 |
| C[n+]1cccc2cc(C=NNC(=O)c3ccc4ccc5ccc(C(=O)NN=Cc6ccc7c(ccc[n+]7C)c6)nc5c4n3)ccc21.[I-].[I-] | 22CTA telomeric G4-DNA antiparallel | FRET melting | – | 1 µM, K10 buffer, DNA 0.2 µM | – | ΔTm | 27.9 ± 0.1 °C |
| CC(C)NCCCn1c(Sc2cc3c(cc2I)OCO3)nc2c(N)ncnc21 | MyBP-C | – | MYBPC3 iPSC-derived cardiomyocytes (human) | concentration not given, fresh powder retest | – | activity | inactive |
| CCS(=O)(=O)c1nc(C2CC2)cc(C(F)(F)F)n1 | transportin-1/2 | FUS nuclear import, high content imaging | HeLa Kyoto reporter | 0.158 µM, 2 h | – | cells with nuclear reporter | 93.5% and 91.9% |

| Compound | target | test | test system | conditions | how to read | quantity | result |
| --- | --- | --- | --- | --- | --- | --- | --- |
| CN(C(=O)n1cnc(-c2ccc[n+]([O-])c2)c1)C1CCCCC1 | ATP-sensitive potassium channel | – | – | concentration not given | – | inhibition | 1.07% |
| O=C(C#Cc1cn(Cc2ccccc2)c(=O)[nH]c1=O)NCc1ccccc1 | MMP-1 | inhibitor, colorimetric | – | 20 µM | – | remaining MMP-1 activity | 93 ± 5% |
| CCc1oc2c([C@H](CO)N(CC)CC)cccc2c1C | S1P receptors, human | agonist, NanoBiT G-protein dissociation | – | concentration not given | – | activity | no effect |
| O=C(O)CCCOc1cccc(CNC(=O)C#Cc2cn(Cc3ccc(C(=O)O)cc3)c(=O)[nH]c2=O)c1 | MMP-7 | inhibitor, FRET | – | 10 µM | – | remaining MMP-7 activity | 104 ± 2% |
| O=C(NS(=O)(=O)c1ccccc1-c1ccccc1)c1cc2ccc(N3CCOCC3)cc2o1 | estrogen receptor alpha, human | reporter gene | MCF7-MVLN | 24 h | – | IC50 | > 20 µM |
| Cc1ccc(Nc2nccc(N(C)c3ccc4c(C)n(C)nc4c3)n2)cc1S(N)(=O)=O | CK1 (yeast) | kinase activity, inhibitor | – | 0.3 µM | – | inhibition | 29% |
| CCCc1cc(C)[nH]c(=O)c1CNC(=O)c1cc(-c2ccc(N3CCN(C(C)C)CC3)nc2)cc2c1cnn2C(C)C | 15 other methyltransferases (lysine, arginine, DNA) | enzyme activity, inhibitor | – | – | – | IC50 | > 100 µM |
| O=C(O)[C@@H]1CCCN1c1ncnc2[nH]cnc12 (racemic) | human THEMIS domain | binding, affinity selection mass spectrometry | – | – | relative to: other proteins in batch | fold enrichment | 0.87 |
| CC(=O)NCCCC[C@H](NC(=O)[C@H](CC(=O)O)NC(=O)[C@H](CO)NC(C)=O)C(=O)Nc1ccc2c(C)cc(=O)oc2c1 | human Y386F mutant enzyme | substrate, fluorogenic | – | – | – | kcat | 0.06 ± 0.02 s⁻¹ |
| COc1cc(C)c2cc(C(=O)NS(=O)(=O)c3ccc(C)cc3-c3ccccc3)oc2c1 | estrogen receptor alpha, human | reporter gene | MCF7-MVLN | 24 h | – | IC50 | > 20 µM |
| CCCCC[S+]([O-])c1n[nH]c(N)n1 (centres unmarked) | human THEMIS domain | binding, affinity selection mass spectrometry | – | – | relative to: other proteins in batch | fold enrichment | 1.02 |
| CC(=O)Nc1cccc(-n2c(=O)n(C3CC3)c(=O)c3c(Nc4ccc(I)cc4F)n(C)c(=O)c(C)c32)c1 | IDO1 human | inhibitor | A-431 | 1 µM, added: IFN-γ | – | kynurenine production | 86.1% |
| CC(=O)N[C@H](C(=O)N1C[C@H](O)C[C@H]1C(=O)NCc1ccc(-c2scnc2C)cc1)C(C)(C)SCCCCCCNC(=O)C[C@@H]1N=C(c2ccc(Cl)cc2)c2c(sc(C)c2C)-n2c(C)nnc21 | plectin (human) | TMT proteomics | HeLa | 3 µM, 24 h | relative to: DMSO | relative protein abundance | 1.05 |
| O=S(=O)(c1ccccc1)N(CC(F)(F)F)c1ccc(C(O)(C(F)(F)F)C(F)(F)F)cc1 | LXR-alpha | reporter gene, agonist | THP-1 luciferase reporter | 24 h | – | EC50 | 0.079 ± 0.0011 µM |
| CN1Cc2cc(Cl)ccc2-n2c(nnc2[C@H]2CC[C@H](Oc3ccccn3)CC2)C1 | vasopressin V1A receptor, mouse | liver uptake of [11C] tracer, blocker, PET imaging | CD-1 mice | i.v., 3 mg/kg, 5 min before tracer | – | tracer uptake | decreased |
| CC(=O)O[C@H]1C(=O)[C@@]2(C)[C@H]([C@H](OC(=O)c3ccccc3)[C@]3(O)C[C@H](OC(=O)[C@H](O)[C@@H](NC(=O)c4ccccc4)c4ccccc4)C(C)=C1C3(C)C)[C@]1(OC(C)=O)CO[C@@H]1C[C@@H]2O | tubulin | tubulin polymerization, inhibitor | Caco-2 | 50, 100, 500 ppm | – | geometric mean inhibition | 63.2% |
| CCCCCCCC(=O)OC[C@H](COP(=O)(O)O[C@@H]1[C@H](O)[C@H](O)[C@@H](OP(=O)(O)O)[C@H](OP(=O)(O)O)[C@H]1O)OC(=O)CCCCCCC | Kv7.2/Kv7.3(EEE) mutant channel | channel open probability, activator, fitted PIP2 binding model | – | model 5, efficacy fixed to wild type | relative to: channel without bound PIP2 | efficacy factor E3 | 0.36 |
| Cc1cccc(N2CC(C(=O)O)CC2=O)c1 (centres unmarked) | human THEMIS domain | binding, affinity selection mass spectrometry | – | – | relative to: other proteins in batch | fold enrichment | 1.01 |
| c1coc(-c2n[nH]cc2-c2ccnc3ccccc23)c1 | SKY1 (Candida albicans) | kinase binding, MIB/MS competition | Candida albicans lysate | 10 µM | relative to: DMSO | log2 fold change | 0.02 |
